Published values of several laboratories.
A part holds a random share of what one study measured.
Chain of UniProt P52564 (whole entry, looked up): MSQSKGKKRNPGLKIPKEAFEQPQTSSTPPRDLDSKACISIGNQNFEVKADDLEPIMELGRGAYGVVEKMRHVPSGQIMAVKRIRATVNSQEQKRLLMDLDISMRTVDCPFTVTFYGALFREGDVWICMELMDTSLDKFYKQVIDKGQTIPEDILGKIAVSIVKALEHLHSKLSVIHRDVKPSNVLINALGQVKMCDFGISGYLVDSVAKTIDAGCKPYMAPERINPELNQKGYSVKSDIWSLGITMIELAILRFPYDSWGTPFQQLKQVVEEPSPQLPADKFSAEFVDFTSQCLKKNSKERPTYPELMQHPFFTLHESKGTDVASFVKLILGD
Chain of UniProt Q14164 (whole entry, looked up): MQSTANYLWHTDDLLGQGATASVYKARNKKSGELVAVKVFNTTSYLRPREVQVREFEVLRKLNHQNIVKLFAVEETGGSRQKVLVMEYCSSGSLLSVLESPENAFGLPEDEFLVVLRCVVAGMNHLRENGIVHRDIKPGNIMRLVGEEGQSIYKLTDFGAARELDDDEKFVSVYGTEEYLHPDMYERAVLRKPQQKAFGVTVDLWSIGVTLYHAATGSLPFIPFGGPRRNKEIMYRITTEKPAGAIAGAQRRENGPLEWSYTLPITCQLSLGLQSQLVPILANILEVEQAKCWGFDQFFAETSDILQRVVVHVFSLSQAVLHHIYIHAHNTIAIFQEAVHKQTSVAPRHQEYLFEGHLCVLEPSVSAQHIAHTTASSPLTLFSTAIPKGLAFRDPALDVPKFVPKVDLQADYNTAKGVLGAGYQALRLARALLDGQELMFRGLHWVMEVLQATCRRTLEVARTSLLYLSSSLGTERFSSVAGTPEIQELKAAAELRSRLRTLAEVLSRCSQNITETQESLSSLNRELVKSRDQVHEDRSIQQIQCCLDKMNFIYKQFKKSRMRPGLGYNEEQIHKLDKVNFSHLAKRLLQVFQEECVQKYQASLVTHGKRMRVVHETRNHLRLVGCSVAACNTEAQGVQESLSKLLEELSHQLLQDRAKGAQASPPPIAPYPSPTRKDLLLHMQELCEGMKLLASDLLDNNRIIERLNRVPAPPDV
Chain of UniProt Q96GD4 (whole entry, looked up): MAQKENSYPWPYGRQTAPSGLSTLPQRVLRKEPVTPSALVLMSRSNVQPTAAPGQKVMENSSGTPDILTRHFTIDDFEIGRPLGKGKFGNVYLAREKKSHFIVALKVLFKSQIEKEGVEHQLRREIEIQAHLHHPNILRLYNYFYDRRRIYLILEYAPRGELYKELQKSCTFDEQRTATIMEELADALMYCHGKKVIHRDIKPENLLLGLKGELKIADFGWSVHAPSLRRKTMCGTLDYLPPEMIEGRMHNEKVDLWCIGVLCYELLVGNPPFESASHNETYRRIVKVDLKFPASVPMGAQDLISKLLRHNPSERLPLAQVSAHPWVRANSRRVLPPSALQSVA
Chain of UniProt P57059 (whole entry, looked up): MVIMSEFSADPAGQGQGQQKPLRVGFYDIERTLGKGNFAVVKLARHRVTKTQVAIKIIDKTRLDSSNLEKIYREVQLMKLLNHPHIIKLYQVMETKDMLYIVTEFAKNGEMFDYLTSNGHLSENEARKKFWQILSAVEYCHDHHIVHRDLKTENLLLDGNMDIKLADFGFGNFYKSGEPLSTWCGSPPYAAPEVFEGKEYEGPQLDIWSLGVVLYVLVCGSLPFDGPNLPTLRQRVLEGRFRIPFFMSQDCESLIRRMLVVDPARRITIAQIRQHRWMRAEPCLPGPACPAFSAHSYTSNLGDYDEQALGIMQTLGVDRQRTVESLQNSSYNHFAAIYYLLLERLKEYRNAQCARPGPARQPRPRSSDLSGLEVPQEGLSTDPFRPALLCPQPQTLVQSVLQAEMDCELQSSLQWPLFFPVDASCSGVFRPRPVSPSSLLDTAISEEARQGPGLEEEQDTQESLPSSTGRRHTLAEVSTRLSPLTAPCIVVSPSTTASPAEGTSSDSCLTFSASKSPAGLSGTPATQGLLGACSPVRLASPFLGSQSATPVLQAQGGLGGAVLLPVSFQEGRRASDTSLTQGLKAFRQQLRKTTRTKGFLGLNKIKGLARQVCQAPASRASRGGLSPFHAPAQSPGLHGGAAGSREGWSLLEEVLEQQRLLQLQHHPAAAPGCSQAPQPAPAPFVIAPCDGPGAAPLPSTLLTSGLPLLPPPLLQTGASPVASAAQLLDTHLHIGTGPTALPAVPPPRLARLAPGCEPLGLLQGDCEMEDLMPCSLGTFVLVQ
Chain of UniProt P49674 (whole entry, looked up): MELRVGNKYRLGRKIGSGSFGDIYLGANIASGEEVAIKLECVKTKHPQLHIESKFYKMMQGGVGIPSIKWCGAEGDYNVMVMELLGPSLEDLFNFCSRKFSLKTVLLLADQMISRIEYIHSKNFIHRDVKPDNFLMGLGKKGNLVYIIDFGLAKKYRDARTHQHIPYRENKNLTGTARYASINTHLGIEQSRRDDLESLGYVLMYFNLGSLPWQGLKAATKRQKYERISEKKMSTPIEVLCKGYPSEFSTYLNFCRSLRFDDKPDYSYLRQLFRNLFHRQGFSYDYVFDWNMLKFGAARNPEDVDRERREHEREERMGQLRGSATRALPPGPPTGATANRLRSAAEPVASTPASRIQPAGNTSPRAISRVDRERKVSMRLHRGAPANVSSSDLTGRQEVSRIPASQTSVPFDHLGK
Chain of UniProt P51957 (whole entry, looked up): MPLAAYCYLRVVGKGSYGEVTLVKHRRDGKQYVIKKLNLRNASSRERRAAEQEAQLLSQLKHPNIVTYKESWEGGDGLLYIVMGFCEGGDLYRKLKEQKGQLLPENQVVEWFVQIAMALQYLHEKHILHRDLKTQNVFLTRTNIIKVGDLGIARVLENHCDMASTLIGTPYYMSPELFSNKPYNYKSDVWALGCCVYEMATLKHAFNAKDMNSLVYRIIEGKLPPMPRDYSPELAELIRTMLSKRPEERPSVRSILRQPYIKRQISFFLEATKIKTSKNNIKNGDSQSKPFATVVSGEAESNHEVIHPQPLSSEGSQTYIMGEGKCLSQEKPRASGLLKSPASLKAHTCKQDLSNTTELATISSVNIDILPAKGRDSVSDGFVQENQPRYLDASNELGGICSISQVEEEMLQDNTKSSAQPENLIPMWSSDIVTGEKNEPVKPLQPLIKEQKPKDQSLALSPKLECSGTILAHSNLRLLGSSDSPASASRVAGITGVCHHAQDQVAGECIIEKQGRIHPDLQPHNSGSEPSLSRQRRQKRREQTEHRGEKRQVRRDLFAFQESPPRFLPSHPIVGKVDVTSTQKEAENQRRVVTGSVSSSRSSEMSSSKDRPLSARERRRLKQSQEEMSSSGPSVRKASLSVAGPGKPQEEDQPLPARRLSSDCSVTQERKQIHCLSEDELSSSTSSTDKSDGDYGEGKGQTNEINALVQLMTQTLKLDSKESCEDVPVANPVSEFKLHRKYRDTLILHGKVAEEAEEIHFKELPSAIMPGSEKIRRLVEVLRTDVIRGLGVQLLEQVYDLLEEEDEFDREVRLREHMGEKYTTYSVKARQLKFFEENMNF
Chain of UniProt P51817 (whole entry, looked up): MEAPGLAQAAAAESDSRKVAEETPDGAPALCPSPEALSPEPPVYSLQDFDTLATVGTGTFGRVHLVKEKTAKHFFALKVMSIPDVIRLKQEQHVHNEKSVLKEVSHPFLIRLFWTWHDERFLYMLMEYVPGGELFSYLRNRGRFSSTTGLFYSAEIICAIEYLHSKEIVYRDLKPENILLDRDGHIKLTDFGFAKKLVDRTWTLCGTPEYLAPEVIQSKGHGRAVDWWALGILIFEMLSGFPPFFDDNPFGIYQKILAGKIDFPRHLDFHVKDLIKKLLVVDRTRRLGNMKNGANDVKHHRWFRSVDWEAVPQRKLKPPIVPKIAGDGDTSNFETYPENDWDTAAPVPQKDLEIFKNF

Study 1 — observed: enzyme activity; mode: inhibitor; tested at: 0.5 µM; baseline: control
Target: Homeodomain-interacting protein kinase 3 (HIPK3, Homo sapiens, UniProt Q9H422)
Chain of UniProt Q9H422 (whole entry, looked up): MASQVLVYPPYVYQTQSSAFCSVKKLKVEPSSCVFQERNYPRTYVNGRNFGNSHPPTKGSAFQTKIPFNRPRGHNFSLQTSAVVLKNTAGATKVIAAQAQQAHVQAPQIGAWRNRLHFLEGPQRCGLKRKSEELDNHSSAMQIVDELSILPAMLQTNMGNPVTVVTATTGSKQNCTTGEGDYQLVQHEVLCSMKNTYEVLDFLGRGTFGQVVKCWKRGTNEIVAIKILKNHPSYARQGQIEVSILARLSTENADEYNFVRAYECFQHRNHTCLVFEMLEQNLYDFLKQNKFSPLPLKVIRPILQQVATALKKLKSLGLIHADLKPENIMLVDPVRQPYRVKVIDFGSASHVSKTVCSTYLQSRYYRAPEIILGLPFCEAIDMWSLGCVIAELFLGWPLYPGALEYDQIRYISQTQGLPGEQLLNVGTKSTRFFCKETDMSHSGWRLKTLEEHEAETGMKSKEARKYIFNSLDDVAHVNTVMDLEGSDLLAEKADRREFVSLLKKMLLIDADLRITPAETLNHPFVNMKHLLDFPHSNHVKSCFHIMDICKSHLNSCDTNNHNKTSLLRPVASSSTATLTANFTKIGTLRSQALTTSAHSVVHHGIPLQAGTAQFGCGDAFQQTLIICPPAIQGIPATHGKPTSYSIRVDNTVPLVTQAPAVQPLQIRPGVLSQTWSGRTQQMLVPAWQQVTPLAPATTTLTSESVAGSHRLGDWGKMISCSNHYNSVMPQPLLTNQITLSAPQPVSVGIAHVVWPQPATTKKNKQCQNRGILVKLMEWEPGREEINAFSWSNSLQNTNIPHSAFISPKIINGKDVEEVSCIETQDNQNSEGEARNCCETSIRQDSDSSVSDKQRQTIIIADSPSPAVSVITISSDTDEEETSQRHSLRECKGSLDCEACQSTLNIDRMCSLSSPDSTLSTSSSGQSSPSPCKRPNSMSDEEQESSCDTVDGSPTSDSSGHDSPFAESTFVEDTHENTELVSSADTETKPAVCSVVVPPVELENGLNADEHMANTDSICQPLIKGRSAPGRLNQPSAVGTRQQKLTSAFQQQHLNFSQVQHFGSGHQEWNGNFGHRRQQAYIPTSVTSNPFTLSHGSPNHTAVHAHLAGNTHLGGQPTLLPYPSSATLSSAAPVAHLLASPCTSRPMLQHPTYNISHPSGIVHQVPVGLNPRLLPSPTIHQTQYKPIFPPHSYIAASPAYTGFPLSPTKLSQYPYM
| Structure (SMILES) | remaining activity [%] |
| --- | --- |
| Cc1cn(-c2cc(NC(=O)c3ccc(C)c(Nc4nccc(-c5cccnc5)n4)c3)cc(C(F)(F)F)c2)cn1 | 99.8 |
| Ic1cccc(CSc2nnc(-c3ccncc3)o2)c1 | 99.1 |
| Cc1nc2cc3nc(-c4cccs4)cnc3cc2n1C | 101 |
| CN(C)C[C@H]1CCn2c(c(C3=C(c4cn(C)c5ccccc45)C(=O)NC3=O)c3ccccc32)C1 | 111 |
| COc1cc2ncnc(Nc3ccc(O)c(Br)c3)c2cc1OC | 67.7 |
| CCN(CC)CCNC(=O)c1c(C)[nH]c(/C=C2\C(=O)Nc3ccc(Cl)cc32)c1C | 50.8 |
| O=C(NC(NC(=S)Nc1ccc(F)c([N+](=O)[O-])c1)C(Cl)(Cl)Cl)C(c1ccccc1)c1ccccc1 (centres unmarked) | 105 |
| O=c1cc(-c2cccc3c2Sc2ccccc2S3)oc(N2CCOCC2)c1 | 105 |
| Cc1cc2ncc(-c3ccccc3)nc2cc1C | 94.4 |
| N#C/C(=C\c1ccc(O)c(O)c1)C(=O)NCc1ccccc1 | 96.6 |
| O=C1C(Cl)=C(N2C(=O)CCC2=O)C(=O)c2ccccc21 | 112 |
| c1ccc(-c2cnc(Nc3ccc(OCCN4CCCC4)cc3)s2)cc1 | 64.8 |
| C[C@@H]1CCN(C(=O)CC#N)C[C@@H]1N(C)c1ncnc2[nH]ccc12 | 100 |
| COc1cc2ncnc(Nc3cccc(Cl)c3)c2cc1OC | 98.9 |
| CCN(CC)C(=O)c1ccc(Nc2nc(OCC3CCCCC3)c3[nH]cnc3n2)cc1 | 96.4 |
| O=C1c2ccccc2-c2n[nH]c3cccc1c23 | 84.8 |
| CCOc1nc(NC(=O)Cc2cc(OC)ccc2OC)cc(N)c1C#N | 113 |
| O=C(Nc1cccc(Nc2nccc(Nc3cccc(C(F)(F)F)c3)n2)c1)C1CC1 | 104 |
| CCN(CC)CCNC(=O)c1c(C)[nH]c(/C=C2\C(=O)Nc3ccc(F)cc32)c1C | 47.3 |
| c1ccc(-c2[nH]ncc2-c2ccnc3ccccc23)nc1 | 97 |
| CN([C@@H](Cc1ccc(OS(=O)(=O)c2cccc3cnccc23)cc1)C(=O)N1CCN(c2ccccc2)CC1)S(=O)(=O)c1cccc2cnccc12 | 110 |
| COc1cc2c(cc1OC)-c1[nH]nc(Nc3cccc(F)c3)c1C2 | 100 |
| N#Cc1c(NC(=O)c2cccc3ccccc23)sc2c1CCCC2 | 116 |
| Cn1nc2c3c(cccc31)C(=O)c1ccccc1-2 | 113 |

Study 2 — species: human patients; medium: plasma
SMILES: COc1ccc(-c2c(Nc3ccccn3)[nH]c3c(C4=CCCCC4)c(-c4ccccc4)nn3c2=O)cc1
| assay | conditions | mean concentration |
| --- | --- | --- |
| measured: methionine | 200 mg once daily, 4 h | 128000 ng/mL |
| measured: S-adenosylmethionine | 400 mg once daily, 0 h | 20.8 ng/mL |
| measured: S-adenosylmethionine | 100 mg once daily, 6 h | 17.6 ng/mL |
| measured: S-adenosylmethionine | 150 mg once daily, 6 h | 22 ng/mL |
| measured: S-adenosylmethionine | 200 mg once daily, 0 h | 17 ng/mL |
| measured: methionine | 150 mg once daily, 0 h | 136000 ng/mL |
| measured: methionine | 200 mg once daily, 6 h | 120000 ng/mL |
| measured: methionine | 150 mg once daily, 8 h | 124000 ng/mL |
| measured: S-adenosylmethionine | 200 mg once daily, 2 h | 14.8 ng/mL |
| measured: S-adenosylmethionine | 150 mg once daily, 0 h | 18.4 ng/mL |
| measured: methionine | 200 mg once daily, 8 h | 119000 ng/mL |
| measured: methionine | 100 mg once daily, 4 h | 95700 ng/mL |
| measured: methionine | 100 mg once daily, 8 h | 92000 ng/mL |

Study 3 — technique: phase 2a trial; species: idiopathic pulmonary fibrosis patients
SMILES: CC(C)n1cnc(-c2ccc(F)cc2)c1-c1ncc(C(=O)Nc2ccc(N3CCN(C)CC3)cc2)[nH]1
| conditions | patients with paronychia |
| --- | --- |
| all arms pooled, grade 4 emergent event | 0% |
| 60 mg once daily, grade 4 emergent event | 0% |
| 30 mg once daily, grade 1 emergent event | 0% |
| 60 mg once daily, grade 3 emergent event | 0% |
| 30 mg once daily, grade 5 emergent event | 0% |
| all arms pooled, grade 5 emergent event | 0% |

Study 4 — tested at: 1 µM
SMILES: COc1cc(-c2cn(C3CCc4ccccc4N(CC(F)(F)F)C3=O)nn2)ccc1-n1ccc(C)n1 (centres unmarked)
| target | assay | remaining binding |
| --- | --- | --- |
| Homeodomain-interacting protein kinase 3 (HIPK3, Homo sapiens, UniProt Q9H422) | cell-free assay, competition with immobilised ligand | 83% |
| Serine/threonine-protein kinase VRK2 (VRK2, Homo sapiens, UniProt Q86Y07) | cell-free assay, competition with immobilised ligand | 100% |
| Dual specificity mitogen-activated protein kinase kinase 6 (MAP2K6, Homo sapiens, UniProt P52564) | cell-free assay, competition with immobilised ligand | 100% |
| Mast/stem cell growth factor receptor Kit (KIT, Homo sapiens, UniProt P10721, D816H) | cell-free assay, competition with immobilised ligand | 75% |
| Serine/threonine-protein kinase Nek4 (NEK4, Homo sapiens, UniProt P51957) | cell-free assay, competition with immobilised ligand | 100% |
| Tyrosine-protein kinase Lyn (LYN, Homo sapiens, UniProt P07948) | cell-free assay, competition with immobilised ligand | 100% |
| Receptor-type tyrosine-protein kinase FLT3 (FLT3, Homo sapiens, UniProt P36888, K663Q) | cell-free assay, competition with immobilised ligand | 100% |
| Serine/threonine-protein kinase DCLK2 (DCLK2, Homo sapiens, UniProt Q8N568) | cell-free assay, competition with immobilised ligand | 92% |
| Receptor tyrosine-protein kinase erbB-4 (ERBB4, Homo sapiens, UniProt Q15303) | cell-free assay, competition with immobilised ligand | 100% |
| Receptor-type tyrosine-protein kinase FLT3 (FLT3, Homo sapiens, UniProt P36888, ITD) | cell-free assay, competition with immobilised ligand | 98% |
| Dual serine/threonine and tyrosine protein kinase (DSTYK, Homo sapiens, UniProt Q6XUX3) | cell-free assay, competition with immobilised ligand | 100% |
| Ephrin type-B receptor 2 (EPHB2, Homo sapiens, UniProt P29323) | cell-free assay, competition with immobilised ligand | 100% |
| Calcium/calmodulin-dependent protein kinase type IV (CAMK4, Homo sapiens, UniProt Q16566) | cell-free assay, competition with immobilised ligand | 100% |
| Serine/threonine-protein kinase WNK4 (WNK4, Homo sapiens, UniProt Q96J92) | cell-free assay, competition with immobilised ligand | 100% |
| Casein kinase I isoform epsilon (CSNK1E, Homo sapiens, UniProt P49674) | cell-free assay, competition with immobilised ligand | 100% |
| cAMP-dependent protein kinase catalytic subunit PRKX (PRKX, Homo sapiens, UniProt P51817) | cell-free assay, competition with immobilised ligand | 95% |
| Inhibitor of nuclear factor kappa-B kinase subunit epsilon (IKBKE, Homo sapiens, UniProt Q14164) | cell-free assay, competition with immobilised ligand | 68% |
| Aurora kinase B (AURKB, Homo sapiens, UniProt Q96GD4) | cell-free assay, competition with immobilised ligand | 89% |
| Serine/threonine-protein kinase SIK1 (SIK1, Homo sapiens, UniProt P57059) | competition binding | 100% |
| Serine/threonine-protein kinase TNNI3K (TNNI3K, Homo sapiens, UniProt Q59H18) | cell-free assay, competition with immobilised ligand | 100% |
| cGMP-dependent protein kinase 2 (PRKG2, Homo sapiens, UniProt Q13237) | cell-free assay, competition with immobilised ligand | 85% |
| MAP kinase-activated protein kinase 5 (MAPKAPK5, Homo sapiens, UniProt Q8IW41) | cell-free assay, competition with immobilised ligand | 91% |
| Myosin-IIIa (MYO3A, Homo sapiens, UniProt Q8NEV4) | binding, competition with immobilised ligand | 100% |
| Serine/threonine-protein kinase Sgk2 (SGK2, Homo sapiens, UniProt Q9HBY8) | cell-free assay, competition with immobilised ligand | 100% |
| MAP kinase-interacting serine/threonine-protein kinase 1 (MKNK1, Homo sapiens, UniProt Q9BUB5) | cell-free assay, competition with immobilised ligand | 78% |

For quick reference, copied from above (study 3):
| conditions | patients with paronychia |
| --- | --- |
| 30 mg once daily, grade 1 emergent event | 0% |
| all arms pooled, grade 5 emergent event | 0% |
| 60 mg once daily, grade 3 emergent event | 0% |
| all arms pooled, grade 4 emergent event | 0% |
